{"data": "Measurements of several laboratories", "Luciferin 4-monooxygenase": "Luciferin 4-monooxygenase (Photinus pyralis, UniProt P08659)", "Palmitoyl-protein thioesterase 1": "Palmitoyl-protein thioesterase 1 (Homo sapiens, UniProt P50897)", "DRD1": "D(1A) dopamine receptor (DRD1, Homo sapiens, UniProt P21728)", "note": "Compare with care: the assays were run in different laboratories. “And” joins repeats or separate records; there may be more than shown. ± marks the error that the study gave.", "chain of UniProt P05164 (whole entry, looked up)": "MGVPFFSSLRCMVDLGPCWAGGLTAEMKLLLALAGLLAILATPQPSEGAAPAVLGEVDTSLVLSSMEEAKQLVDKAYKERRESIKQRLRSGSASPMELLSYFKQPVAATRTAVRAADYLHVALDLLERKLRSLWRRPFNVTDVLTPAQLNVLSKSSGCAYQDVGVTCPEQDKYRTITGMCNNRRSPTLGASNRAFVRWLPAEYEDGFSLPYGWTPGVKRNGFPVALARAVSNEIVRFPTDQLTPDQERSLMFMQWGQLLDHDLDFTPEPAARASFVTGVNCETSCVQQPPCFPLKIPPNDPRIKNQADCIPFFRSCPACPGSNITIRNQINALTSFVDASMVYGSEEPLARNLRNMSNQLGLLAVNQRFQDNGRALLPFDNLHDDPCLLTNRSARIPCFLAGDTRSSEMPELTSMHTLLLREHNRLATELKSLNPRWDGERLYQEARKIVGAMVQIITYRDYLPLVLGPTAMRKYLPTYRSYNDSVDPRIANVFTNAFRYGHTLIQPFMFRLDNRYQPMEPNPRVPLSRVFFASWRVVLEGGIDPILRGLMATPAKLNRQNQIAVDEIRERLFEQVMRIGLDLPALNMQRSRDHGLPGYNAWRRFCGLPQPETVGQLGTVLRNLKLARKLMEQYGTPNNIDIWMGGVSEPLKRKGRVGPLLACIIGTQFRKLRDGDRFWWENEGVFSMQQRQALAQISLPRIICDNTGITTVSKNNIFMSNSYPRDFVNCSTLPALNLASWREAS", "chain of UniProt P08659 (whole entry, looked up)": "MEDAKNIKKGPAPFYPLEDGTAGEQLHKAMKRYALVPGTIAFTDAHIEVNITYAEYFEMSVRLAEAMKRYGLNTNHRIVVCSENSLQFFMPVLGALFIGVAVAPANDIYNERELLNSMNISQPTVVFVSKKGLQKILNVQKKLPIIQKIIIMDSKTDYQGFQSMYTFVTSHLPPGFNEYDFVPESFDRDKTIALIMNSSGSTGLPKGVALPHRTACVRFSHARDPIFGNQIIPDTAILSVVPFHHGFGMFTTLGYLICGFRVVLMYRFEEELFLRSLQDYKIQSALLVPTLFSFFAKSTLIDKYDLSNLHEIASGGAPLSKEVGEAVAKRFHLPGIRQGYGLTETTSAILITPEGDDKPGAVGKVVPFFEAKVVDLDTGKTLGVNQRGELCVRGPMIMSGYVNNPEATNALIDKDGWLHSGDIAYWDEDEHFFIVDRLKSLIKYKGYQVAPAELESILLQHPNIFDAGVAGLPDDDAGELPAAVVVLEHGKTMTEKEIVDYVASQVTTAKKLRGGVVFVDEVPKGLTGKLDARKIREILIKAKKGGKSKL", "chain of UniProt P50897 (whole entry, looked up)": "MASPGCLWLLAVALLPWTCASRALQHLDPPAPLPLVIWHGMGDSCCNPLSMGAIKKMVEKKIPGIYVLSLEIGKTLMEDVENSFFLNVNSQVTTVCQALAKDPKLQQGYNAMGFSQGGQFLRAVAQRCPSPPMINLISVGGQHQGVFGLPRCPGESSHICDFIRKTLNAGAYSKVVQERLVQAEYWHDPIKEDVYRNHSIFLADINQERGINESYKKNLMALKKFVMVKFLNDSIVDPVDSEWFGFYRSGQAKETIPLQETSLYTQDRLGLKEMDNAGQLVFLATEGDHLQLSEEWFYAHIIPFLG", "chain of UniProt P21728 (whole entry, looked up)": "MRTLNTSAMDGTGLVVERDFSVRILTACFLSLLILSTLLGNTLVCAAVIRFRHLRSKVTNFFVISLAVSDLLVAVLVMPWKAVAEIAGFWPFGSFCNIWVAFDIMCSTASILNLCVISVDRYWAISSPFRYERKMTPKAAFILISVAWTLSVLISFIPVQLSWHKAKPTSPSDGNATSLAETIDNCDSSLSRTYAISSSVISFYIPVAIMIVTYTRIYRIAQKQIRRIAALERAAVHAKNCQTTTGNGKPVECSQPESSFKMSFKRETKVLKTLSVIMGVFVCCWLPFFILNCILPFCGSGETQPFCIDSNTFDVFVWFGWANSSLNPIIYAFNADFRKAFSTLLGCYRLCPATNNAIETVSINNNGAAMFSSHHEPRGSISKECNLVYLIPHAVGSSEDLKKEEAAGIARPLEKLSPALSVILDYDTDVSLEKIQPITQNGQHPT", "chain of UniProt P49760 (whole entry, looked up)": "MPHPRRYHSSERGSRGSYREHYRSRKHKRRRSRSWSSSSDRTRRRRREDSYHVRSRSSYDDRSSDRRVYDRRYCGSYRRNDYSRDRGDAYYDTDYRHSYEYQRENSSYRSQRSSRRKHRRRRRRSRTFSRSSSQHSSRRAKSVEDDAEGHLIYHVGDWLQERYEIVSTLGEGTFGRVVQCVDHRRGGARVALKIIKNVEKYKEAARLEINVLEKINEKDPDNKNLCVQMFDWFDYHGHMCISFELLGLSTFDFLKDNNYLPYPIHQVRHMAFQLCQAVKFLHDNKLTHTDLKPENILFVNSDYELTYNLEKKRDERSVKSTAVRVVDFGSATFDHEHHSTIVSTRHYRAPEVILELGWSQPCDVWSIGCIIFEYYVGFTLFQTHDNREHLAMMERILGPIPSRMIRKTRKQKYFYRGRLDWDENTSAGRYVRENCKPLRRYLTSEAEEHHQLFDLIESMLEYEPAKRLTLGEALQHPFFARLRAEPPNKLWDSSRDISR", "chain of UniProt P08253 (whole entry, looked up)": "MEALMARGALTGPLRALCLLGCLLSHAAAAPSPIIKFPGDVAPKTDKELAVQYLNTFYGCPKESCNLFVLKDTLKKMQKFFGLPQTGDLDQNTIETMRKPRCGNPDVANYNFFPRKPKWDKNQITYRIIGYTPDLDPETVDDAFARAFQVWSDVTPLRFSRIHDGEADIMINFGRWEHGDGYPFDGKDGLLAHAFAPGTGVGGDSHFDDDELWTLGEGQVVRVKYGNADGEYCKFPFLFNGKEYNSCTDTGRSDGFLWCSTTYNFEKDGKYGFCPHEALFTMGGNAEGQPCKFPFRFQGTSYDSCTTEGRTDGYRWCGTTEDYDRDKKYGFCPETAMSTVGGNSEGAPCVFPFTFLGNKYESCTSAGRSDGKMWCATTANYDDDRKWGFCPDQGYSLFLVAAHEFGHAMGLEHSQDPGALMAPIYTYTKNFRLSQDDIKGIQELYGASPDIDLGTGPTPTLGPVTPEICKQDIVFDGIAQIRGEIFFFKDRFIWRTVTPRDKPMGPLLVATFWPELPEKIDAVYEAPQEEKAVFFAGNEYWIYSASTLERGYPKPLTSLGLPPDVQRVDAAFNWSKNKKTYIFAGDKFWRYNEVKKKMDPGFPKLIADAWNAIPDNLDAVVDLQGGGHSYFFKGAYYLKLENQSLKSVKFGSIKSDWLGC", "chain of UniProt P78508 (whole entry, looked up)": "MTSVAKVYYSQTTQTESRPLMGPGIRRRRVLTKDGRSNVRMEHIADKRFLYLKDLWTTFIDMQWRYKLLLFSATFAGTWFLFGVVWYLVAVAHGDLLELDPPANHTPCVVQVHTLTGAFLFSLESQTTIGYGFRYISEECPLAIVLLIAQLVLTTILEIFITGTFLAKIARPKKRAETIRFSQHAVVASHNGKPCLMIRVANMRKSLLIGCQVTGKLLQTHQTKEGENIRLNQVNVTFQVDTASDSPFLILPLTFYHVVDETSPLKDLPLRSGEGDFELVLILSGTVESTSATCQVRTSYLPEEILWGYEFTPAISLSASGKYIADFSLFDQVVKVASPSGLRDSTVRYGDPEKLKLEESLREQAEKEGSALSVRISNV", "chain of UniProt Q8N884 (whole entry, looked up)": "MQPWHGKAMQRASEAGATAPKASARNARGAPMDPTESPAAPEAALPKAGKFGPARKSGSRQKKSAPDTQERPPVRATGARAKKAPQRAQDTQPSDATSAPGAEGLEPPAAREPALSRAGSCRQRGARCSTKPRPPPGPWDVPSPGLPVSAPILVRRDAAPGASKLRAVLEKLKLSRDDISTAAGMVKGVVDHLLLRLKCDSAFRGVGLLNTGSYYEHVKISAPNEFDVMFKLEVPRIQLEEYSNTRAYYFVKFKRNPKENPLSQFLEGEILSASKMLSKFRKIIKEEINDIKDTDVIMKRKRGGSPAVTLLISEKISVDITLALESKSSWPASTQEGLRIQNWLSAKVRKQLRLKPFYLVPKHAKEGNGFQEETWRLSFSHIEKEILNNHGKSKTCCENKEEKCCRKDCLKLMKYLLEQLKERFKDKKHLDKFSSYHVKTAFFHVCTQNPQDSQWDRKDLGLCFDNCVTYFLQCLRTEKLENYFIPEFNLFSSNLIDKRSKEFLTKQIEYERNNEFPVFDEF", "chain of UniProt P07237 (whole entry, looked up)": "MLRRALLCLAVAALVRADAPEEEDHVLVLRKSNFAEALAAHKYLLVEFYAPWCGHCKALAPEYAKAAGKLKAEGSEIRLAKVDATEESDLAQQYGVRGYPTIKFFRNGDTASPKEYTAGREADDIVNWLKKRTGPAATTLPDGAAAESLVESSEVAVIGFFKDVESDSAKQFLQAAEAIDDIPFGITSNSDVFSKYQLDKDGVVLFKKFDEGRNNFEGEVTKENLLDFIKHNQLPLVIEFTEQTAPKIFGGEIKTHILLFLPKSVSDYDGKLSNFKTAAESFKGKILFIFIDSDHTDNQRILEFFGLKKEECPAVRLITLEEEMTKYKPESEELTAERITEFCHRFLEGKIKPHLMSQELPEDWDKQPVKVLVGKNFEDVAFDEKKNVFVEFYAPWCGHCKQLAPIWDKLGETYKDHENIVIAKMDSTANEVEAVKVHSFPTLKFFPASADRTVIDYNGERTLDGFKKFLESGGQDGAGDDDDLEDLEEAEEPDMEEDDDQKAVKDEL", "chain of UniProt P28566 (whole entry, looked up)": "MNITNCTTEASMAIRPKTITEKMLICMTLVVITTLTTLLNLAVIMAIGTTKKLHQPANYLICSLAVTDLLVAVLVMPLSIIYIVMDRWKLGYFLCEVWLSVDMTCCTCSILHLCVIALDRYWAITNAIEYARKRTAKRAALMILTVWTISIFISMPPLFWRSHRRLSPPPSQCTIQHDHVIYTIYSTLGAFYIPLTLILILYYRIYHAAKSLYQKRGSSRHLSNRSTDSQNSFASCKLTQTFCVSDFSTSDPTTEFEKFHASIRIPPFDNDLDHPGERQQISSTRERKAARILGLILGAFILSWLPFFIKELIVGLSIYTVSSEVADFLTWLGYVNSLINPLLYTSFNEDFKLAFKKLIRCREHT"}
{"SMILES": "CN1CCC(NC(=O)c2cccc3c2CCN3C(=O)Nc2ccc(F)cc2)CC1", "target": "Luciferin 4-monooxygenase", "assay": "luciferase luminescence, inhibitor", "system": "cell-free", "setting": "50 µM, counter-screen", "inhibition": "33.9%"}
{"SMILES": "Cc1cccc(N(O)N=Nc2ccc(S(=O)(=O)Nc3nccs3)cc2)c1", "target": "α-glucosidase, rat intestine", "assay": "enzyme activity", "setting": "300 µg/mL, with: 4-nitrophenyl α-D-glucopyranoside", "inhibition": "45 ± 1.38%"}
{"SMILES": "CC(C)c1noc2ncc(C(=O)c3ccccc3O)cc12", "target": "ATP-sensitive inward rectifier potassium channel 10 (Homo sapiens, UniProt P78508)", "assay": "ion current, whole-cell patch-clamp", "setting": "10 µM", "inhibition": "4.72%"}
{"SMILES": "Cc1cccc(N(O)N=Nc2ccc(S(=O)(=O)Nc3cc(C)on3)cc2)c1", "target": "α-glucosidase, rat intestine", "assay": "enzyme activity", "setting": "60 µg/mL, with: 4-nitrophenyl α-D-glucopyranoside", "inhibition": "12.5 ± 2.3%"}
{"SMILES": "CCNNC(=O)c1ccc(CN(CC(=O)NCc2ccccc2)C(=O)c2ccc(N(C)C)cc2)cc1", "target": "MMP2 (Homo sapiens, UniProt P08253)", "assay": "enzyme activity", "setting": "10 µM", "inhibition": "no inhibition"}
{"SMILES": "CNC(=O)c1ccccc1Sc1ccc2c(/C=C/c3ccccn3)n[nH]c2c1", "target": "Luciferin 4-monooxygenase", "assay": "luciferase luminescence, inhibitor", "system": "cell-free", "setting": "50 µM, counter-screen", "inhibition": "69.5%"}
{"SMILES": "COc1ccc2c(c1)C(=O)N(CCN1CCN(c3ccccc3OC)CC1)C2", "target": "HTR1E (Homo sapiens, UniProt P28566)", "assay": "radioligand binding", "setting": "concentration not given, with: [3H]5-HT", "inhibition": "-1.5%"}
{"SMILES": "C#C[C@]1(OC(C)=O)CC[C@H]2[C@@H]3CCC4=C[C@@H](OC(C)=O)CC[C@@H]4[C@H]3CC[C@@]21C", "target": "Palmitoyl-protein thioesterase 1", "assay": "Spectrum Collection screen", "setting": "concentration not given, with: substrate 20 µM", "inhibition": "60.3%"}
{"SMILES": "Cc1cc(OC(C)C)ccc1C(=O)C(C)(C)NC(=O)c1sccc1C", "target": "NADH-cytochrome c oxidoreductase (complex I-III), Botrytis cinerea", "system": "mitochondrial fraction", "setting": "concentration not given", "inhibition": "no inhibition"}
{"SMILES": "COc1cc2c(cc1OC)/C(=C/CCCCCCOCc1ccccc1)C=C2C(F)(F)F", "target": "P4HB (Homo sapiens, UniProt P07237)", "assay": "enzyme activity, inhibitor, insulin reduction", "setting": "concentration not given, biochemical", "inhibition": "no effect"}
{"SMILES": "Cc1cccc(N(O)N=Nc2ccc(S(=O)(=O)Nc3onc(C)c3C)cc2)c1", "target": "α-glucosidase, rat intestine", "assay": "enzyme activity", "setting": "300 µg/mL, with: 4-nitrophenyl α-D-glucopyranoside", "inhibition": "52.5 ± 0.09%"}
{"SMILES": "Cc1nn(-c2nc3c(F)cc(F)cc3s2)c(O)c1C(c1ccccc1C(=O)O)c1c(C)nn(-c2nc3c(F)cc(F)cc3s2)c1O", "target": "Cyclic GMP-AMP synthase, catalytic domain; with DNA (CGAS, Homo sapiens, UniProt Q8N884)", "assay": "cGAS phase separation, inhibitor", "setting": "20 µM", "inhibition": "102%"}
{"SMILES": "CCN(CC)C(=O)/C(C#N)=C/c1cc(O)c(O)c([N+](=O)[O-])c1", "target": "Palmitoyl-protein thioesterase 1", "assay": "Spectrum Collection screen", "setting": "concentration not given, with: substrate 20 µM", "inhibition": "61.8%"}
{"SMILES": "Cc1ccnc(C)c1OC[C@H]1CN(CCN2CCc3ccccc32)CCO1", "target": "DRD1", "assay": "radioligand binding", "setting": "concentration not given, with: [3H]SCH23390", "inhibition": "33.9%"}
{"SMILES": "CC[C@@H]1[C@H](F)C(=O)N[C@@H]1COc1nccc2cc(C(N)=O)c(OC)cc12", "target": "CLK2 (Homo sapiens, UniProt P49760)", "assay": "ATP-site probe binding, ActivX profiling", "system": "THP-1 cell lysate", "setting": "0.01 mM, Lys2 site", "inhibition": "26.8%"}
{"SMILES": "O=C(Nc1cccc2c(=O)cc(-c3nnn[nH]3)oc12)c1ccc(OCCCCc2ccccc2)cc1", "target": "Volume-regulated anion channel subunit LRRC8C, part LRRC8A IL1 chimera (LRRC8C, Homo sapiens, UniProt Q8TDW0, E6A)", "assay": "ion current, inhibitor, whole-cell patch clamp", "system": "HCT116 LRRC8 knockout, transfected", "setting": "3 µM, at +100 mV", "inhibition": "84.8%"}
{"SMILES": "CCCN(O)N=Nc1ccc(S(=O)(=O)Nc2onc(C)c2C)cc1", "target": "α-glucosidase, rat intestine", "assay": "enzyme activity", "setting": "300 µg/mL, with: 4-nitrophenyl α-D-glucopyranoside", "inhibition": "62.5 ± 0.72%"}
{"SMILES": "Cc1ccnc(OC[C@H]2CN(CC(=O)N3CCc4ccccc43)CCO2)c1", "target": "DRD1", "assay": "radioligand binding", "setting": "concentration not given, with: [3H]SCH23390", "inhibition": "63.7%"}
{"SMILES": "Cc1noc(NS(=O)(=O)c2ccc(N=NN(C)O)cc2)c1C", "target": "α-glucosidase, rat intestine", "assay": "enzyme activity", "setting": "300 µg/mL, with: 4-nitrophenyl α-D-glucopyranoside", "inhibition": "57.5 ± 2.63%"}
{"SMILES": "NC/C(=C\\F)COc1cccc(Cn2c(=S)[nH]c(=O)c3[nH]cnc32)c1", "target": "Myeloperoxidase (MPO, Homo sapiens, UniProt P05164)", "assay": "enzyme activity", "setting": "15 µM", "inhibition": "99.7% and 100% and 99.8% and 99.5%"}
{"note": "Some of these lines once more:"}
{"SMILES": "Cc1noc(NS(=O)(=O)c2ccc(N=NN(C)O)cc2)c1C", "target": "α-glucosidase, rat intestine", "assay": "enzyme activity", "setting": "300 µg/mL, with: 4-nitrophenyl α-D-glucopyranoside", "inhibition": "57.5 ± 2.63%"}
